Measured values from different studies.
Each numbered part is a random draw from the data of one study; scales do not carry over between parts. ± marks the error that the study gave.

Block 1
Organism: SARS-CoV-2 Wuhan spike VSV pseudovirus
Read-out: pseudovirus entry
Concentration: concentration not given
Endpoint: inhibition
COc1ccccc1C(=O)N1C2CCC1c1cnc(-c3ccc(F)cc3)nc1C2 (centres unmarked): 41%
O=C1CCCN1c1ccc(Cn2nc3c(S(=O)(=O)N4CCCC4)cccn3c2=O)cc1: 44%
Cc1cccc(CNC(=O)C2CCN(S(=O)(=O)c3cc(-c4noc(C5CC5)n4)ccc3C)CC2)c1: 48%
Cc1cc(C(=O)N(Cc2ccccn2)C2CC2)sc1C: 40%
O=C(NC1CC(=O)N(CCCc2ccccc2)C1)c1ccsc1 (centres unmarked): 39%
CCOC(=O)c1cc(C#N)c2ccccn2c1=O: 40%
CCc1nc(=O)c(-c2ccccc2)c(C)n1-c1ccccc1: 49%

Other studies, line by line
rep papain-like protease: Replicase polyprotein 1ab, papain-like protease (rep, Severe acute respiratory syndrome coronavirus 2, UniProt P0DTD1)
rep nsp14: Replicase polyprotein 1ab, nsp14 (rep, Severe acute respiratory syndrome coronavirus 2, UniProt P0DTD1)
rep nsp12 RdRp: Replicase polyprotein 1ab, nsp12 RdRp (rep, Severe acute respiratory syndrome coronavirus 2, UniProt P0DTD1)
CNC(=O)[C@@H](NC(=O)[C@H](CC(C)C)[C@H](O)C(=O)NO)C(C)(C)C  activity (rep papain-like protease; concentration not given, C111S mutant; relative to: positive control): 21.3%
Nc1nc2c(ncn2[C@@H]2O[C@H](COP(=O)(O)OP(=O)(O)OP(=O)(O)OC[C@H]3O[C@@H](n4cnc5c(=O)[nH]c(N)nc54)[C@H](O)[C@@H]3O)[C@@H](O)[C@H]2O)c(=O)[nH]1  ΔTm (rep nsp14; thermal shift; 500 µM): 0.9 °C
C[C@@H]1O[C@@H](OC[C@H]2O[C@@H](OCCc3ccc(O)c(O)c3)[C@H](O)[C@@H](O)[C@@H]2OC(=O)/C=C/c2ccc(O)c(O)c2)[C@H](O)[C@H](O)[C@H]1O  BLI response (rep nsp12 RdRp; binding, biolayer interferometry; 50 µM): 0.03 nm
CCC[C@H](NC(=O)[C@@H]1[C@H]2CCC[C@H]2CN1C(=O)[C@@H](NC(=O)[C@@H](NC(=O)c1cnccn1)C1CCCCC1)C(C)(C)C)C(=O)C(=O)NC1CC1  activity (rep papain-like protease; concentration not given, C111S mutant; relative to: positive control): 30.3%
O=C(NC1CCN(c2ncnc3[nH]cnc23)CC1)c1cccc(S(=O)(=O)N2CCCC2)c1  inhibition (rep nsp14; NSP14 enzyme activity, inhibitor; 200 µM): 85.1%
CS(=O)(=O)N1CCN(Cc2cc3nc(-c4cccc5[nH]ncc45)nc(N4CCOCC4)c3s2)CC1  BLI response (rep nsp12 RdRp; binding, biolayer interferometry; 50 µM): 0.03 nm
CCC(CC)[C@H](NC(C)=O)[C@@H]1[C@H](O)[C@@H](C(=O)O)C[C@H]1N=C(N)N  IC50 (neuraminidase (Influenza B virus, UniProt A0A1S5RAG6, R150K)): 566 ± 89.5 nM

Some of these lines once more (block 1):
O=C1CCCN1c1ccc(Cn2nc3c(S(=O)(=O)N4CCCC4)cccn3c2=O)cc1: 44%
Cc1cccc(CNC(=O)C2CCN(S(=O)(=O)c3cc(-c4noc(C5CC5)n4)ccc3C)CC2)c1: 48%
